# Measured values collected from several papers.
# By UniProt entry, the sequences of proteins in these tests, tags left out. Where a name states a change or a piece, a line headed by the entry shows the natural chain unless it says otherwise. Residues count along the entry.
# UniProt Q14833, 33-912 limits assumed: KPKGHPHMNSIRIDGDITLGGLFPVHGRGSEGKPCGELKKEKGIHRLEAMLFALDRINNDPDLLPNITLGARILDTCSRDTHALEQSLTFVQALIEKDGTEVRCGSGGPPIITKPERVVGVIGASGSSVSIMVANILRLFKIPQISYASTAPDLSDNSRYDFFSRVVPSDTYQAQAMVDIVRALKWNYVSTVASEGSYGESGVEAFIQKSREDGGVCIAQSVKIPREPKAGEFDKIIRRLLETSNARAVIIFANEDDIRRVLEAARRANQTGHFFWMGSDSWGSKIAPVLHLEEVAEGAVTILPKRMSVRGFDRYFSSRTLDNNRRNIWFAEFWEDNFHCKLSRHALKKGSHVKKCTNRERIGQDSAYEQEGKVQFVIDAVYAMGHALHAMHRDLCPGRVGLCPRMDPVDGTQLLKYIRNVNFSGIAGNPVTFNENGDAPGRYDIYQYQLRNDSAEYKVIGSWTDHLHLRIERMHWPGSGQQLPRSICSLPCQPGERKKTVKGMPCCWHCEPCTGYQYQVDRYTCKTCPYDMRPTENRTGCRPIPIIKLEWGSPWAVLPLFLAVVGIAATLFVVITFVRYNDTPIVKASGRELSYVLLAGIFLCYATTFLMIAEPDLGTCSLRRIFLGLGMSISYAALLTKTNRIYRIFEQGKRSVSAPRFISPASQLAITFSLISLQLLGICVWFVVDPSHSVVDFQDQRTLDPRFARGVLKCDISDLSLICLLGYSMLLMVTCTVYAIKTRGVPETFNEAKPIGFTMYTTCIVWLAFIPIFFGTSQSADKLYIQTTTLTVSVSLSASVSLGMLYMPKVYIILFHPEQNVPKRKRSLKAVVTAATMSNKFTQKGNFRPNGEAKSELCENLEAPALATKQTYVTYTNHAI
# UniProt Q3UFF7, whole entry: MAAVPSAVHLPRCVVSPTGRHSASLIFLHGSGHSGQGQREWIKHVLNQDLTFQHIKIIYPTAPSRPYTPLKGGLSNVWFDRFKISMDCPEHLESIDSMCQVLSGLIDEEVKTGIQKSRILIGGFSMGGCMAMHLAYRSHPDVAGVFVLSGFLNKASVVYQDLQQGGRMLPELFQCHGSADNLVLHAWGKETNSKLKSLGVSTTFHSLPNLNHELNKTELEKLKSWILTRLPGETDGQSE
# UniProt P43220, whole entry, looked up: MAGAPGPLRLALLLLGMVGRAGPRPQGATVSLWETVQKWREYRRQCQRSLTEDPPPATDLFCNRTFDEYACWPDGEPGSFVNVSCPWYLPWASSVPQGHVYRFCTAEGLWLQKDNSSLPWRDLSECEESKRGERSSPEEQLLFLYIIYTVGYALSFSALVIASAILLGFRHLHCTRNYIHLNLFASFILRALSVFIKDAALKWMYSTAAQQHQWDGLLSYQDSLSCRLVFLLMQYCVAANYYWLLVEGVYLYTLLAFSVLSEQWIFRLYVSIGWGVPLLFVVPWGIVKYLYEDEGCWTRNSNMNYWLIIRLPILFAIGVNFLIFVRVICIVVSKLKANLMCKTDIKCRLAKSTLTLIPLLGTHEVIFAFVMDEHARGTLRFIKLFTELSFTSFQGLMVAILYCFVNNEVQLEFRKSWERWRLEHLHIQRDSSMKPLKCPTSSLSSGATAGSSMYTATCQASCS
# UniProt P43220, 24-463 limits assumed: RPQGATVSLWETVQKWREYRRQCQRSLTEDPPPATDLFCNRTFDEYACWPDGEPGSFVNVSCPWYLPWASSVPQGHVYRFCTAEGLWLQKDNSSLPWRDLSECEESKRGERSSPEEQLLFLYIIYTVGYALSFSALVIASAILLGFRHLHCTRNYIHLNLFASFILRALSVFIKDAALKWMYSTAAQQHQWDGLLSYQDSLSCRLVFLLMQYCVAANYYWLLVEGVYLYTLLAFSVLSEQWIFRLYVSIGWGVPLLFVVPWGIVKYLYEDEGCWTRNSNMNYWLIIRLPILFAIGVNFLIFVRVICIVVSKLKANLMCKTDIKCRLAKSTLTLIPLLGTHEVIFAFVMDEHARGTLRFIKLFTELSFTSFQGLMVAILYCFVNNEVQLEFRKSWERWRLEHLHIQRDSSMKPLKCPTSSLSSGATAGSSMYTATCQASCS
# UniProt P30291, whole entry: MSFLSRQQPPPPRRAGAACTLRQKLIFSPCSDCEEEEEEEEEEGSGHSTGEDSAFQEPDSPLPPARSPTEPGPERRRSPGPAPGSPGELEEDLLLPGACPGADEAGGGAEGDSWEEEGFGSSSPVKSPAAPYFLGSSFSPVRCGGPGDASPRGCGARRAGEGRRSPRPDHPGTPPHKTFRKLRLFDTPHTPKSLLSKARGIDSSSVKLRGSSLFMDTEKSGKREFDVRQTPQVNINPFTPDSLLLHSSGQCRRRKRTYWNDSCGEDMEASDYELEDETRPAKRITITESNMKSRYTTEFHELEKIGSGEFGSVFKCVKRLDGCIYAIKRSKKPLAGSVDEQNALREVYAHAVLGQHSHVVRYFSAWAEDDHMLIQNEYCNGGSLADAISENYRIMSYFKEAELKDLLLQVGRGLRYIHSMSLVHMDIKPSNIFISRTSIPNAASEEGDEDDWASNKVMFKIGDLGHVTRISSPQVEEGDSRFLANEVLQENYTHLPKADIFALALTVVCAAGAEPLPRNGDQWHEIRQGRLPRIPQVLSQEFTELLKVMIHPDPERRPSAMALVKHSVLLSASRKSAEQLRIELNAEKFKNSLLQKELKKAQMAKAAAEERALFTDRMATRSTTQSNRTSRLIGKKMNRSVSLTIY
# UniProt Q96SW2, whole entry: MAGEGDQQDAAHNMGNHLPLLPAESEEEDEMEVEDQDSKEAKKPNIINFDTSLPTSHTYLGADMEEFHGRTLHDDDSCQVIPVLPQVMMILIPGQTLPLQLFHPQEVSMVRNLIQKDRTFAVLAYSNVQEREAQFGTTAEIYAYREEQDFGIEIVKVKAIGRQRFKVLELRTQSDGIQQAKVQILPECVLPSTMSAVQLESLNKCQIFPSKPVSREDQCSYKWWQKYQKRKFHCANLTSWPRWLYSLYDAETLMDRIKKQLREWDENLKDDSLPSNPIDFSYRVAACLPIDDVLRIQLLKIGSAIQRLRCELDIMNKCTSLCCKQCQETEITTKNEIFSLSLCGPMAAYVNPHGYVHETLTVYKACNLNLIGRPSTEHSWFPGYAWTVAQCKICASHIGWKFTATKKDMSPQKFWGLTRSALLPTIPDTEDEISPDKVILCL
# UniProt P51532, whole entry, looked up: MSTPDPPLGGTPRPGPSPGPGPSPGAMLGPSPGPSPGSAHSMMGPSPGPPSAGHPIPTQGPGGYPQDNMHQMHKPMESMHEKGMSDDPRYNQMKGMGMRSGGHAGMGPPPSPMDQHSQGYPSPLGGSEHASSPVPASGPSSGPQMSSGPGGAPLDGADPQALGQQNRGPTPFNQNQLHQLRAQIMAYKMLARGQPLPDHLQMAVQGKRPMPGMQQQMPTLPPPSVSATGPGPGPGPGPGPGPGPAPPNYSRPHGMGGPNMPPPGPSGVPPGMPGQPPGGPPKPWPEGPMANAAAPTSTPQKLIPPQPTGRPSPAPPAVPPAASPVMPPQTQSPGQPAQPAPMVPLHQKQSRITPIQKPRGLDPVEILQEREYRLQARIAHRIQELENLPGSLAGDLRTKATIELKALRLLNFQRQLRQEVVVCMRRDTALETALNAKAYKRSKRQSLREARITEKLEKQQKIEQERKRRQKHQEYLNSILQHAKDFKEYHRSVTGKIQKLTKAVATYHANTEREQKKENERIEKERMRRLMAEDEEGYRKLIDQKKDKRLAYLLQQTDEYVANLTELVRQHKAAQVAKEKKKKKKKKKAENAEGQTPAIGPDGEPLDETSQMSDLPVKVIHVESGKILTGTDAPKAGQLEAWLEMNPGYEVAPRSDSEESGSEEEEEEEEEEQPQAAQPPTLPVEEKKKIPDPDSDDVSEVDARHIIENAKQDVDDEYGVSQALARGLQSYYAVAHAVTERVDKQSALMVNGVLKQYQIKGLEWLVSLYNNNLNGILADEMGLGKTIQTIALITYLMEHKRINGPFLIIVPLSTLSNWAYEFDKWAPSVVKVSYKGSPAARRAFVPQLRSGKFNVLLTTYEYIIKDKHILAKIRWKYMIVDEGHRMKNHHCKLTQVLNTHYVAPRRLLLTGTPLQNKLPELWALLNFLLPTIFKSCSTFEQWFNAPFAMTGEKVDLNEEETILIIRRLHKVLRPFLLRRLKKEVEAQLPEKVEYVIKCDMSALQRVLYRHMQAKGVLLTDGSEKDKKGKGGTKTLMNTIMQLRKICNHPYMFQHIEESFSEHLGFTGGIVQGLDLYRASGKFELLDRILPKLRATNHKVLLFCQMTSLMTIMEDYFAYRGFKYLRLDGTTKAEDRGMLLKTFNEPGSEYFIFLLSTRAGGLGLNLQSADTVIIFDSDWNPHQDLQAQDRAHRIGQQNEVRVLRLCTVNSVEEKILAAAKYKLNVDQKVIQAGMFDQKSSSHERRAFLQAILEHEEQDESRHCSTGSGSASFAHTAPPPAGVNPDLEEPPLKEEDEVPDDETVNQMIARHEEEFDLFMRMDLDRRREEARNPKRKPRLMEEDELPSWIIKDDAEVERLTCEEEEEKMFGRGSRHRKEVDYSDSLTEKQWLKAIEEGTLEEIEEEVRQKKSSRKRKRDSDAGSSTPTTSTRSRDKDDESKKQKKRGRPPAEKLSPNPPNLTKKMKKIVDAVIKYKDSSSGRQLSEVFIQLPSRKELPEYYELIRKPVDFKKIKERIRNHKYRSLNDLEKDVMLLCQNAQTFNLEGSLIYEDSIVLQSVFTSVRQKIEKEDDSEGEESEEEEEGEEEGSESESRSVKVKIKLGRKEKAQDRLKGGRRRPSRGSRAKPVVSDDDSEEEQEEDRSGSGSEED
# UniProt Q923Y8, whole entry T268M/Y287N: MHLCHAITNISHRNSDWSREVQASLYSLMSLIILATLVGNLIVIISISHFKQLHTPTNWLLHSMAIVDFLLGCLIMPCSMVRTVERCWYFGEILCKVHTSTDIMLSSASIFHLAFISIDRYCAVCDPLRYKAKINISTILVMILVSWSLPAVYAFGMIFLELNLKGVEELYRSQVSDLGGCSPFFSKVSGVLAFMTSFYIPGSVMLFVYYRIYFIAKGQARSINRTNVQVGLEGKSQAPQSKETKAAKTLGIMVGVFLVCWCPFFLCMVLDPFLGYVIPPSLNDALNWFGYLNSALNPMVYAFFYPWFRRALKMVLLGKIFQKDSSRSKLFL
# UniProt P41149, whole entry: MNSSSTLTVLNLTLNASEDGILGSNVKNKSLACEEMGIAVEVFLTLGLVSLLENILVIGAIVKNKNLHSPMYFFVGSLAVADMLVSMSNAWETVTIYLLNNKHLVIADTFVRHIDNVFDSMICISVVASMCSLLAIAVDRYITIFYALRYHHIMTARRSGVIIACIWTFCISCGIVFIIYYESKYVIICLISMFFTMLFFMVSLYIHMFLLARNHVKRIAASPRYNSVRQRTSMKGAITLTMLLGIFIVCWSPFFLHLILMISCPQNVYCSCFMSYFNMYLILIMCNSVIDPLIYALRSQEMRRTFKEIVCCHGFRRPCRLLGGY
# UniProt Q16281, whole entry: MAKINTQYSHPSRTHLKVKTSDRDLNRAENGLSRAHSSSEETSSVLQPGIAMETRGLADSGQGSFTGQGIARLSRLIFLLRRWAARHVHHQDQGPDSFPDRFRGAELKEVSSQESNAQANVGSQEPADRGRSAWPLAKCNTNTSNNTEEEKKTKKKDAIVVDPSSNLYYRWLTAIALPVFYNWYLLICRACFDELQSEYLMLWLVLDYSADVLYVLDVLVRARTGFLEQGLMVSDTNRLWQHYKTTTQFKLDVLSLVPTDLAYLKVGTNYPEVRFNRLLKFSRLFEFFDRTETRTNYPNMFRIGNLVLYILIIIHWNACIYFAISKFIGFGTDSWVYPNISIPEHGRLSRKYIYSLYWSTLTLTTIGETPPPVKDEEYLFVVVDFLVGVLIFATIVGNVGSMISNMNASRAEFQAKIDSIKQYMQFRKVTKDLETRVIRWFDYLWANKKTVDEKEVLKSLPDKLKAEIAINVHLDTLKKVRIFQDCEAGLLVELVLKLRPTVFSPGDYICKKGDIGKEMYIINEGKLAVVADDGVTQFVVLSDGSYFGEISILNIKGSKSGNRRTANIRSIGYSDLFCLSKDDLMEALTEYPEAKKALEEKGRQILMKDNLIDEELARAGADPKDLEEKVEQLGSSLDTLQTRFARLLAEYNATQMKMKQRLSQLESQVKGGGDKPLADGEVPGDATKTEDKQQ
# UniProt P56450, whole entry: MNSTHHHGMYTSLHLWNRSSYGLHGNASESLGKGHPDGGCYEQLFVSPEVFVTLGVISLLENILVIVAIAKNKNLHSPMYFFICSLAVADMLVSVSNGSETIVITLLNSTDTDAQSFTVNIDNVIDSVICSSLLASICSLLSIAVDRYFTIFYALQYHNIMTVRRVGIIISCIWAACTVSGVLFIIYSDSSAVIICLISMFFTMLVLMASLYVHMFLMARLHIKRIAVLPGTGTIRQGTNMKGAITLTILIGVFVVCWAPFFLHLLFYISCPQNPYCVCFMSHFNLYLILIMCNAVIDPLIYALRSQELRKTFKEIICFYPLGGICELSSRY
# Compare with care: the assays were run in different laboratories. Numbers after ± are the reported error.
# LYPLAL1: Lysophospholipase-like protein 1 (LYPLAL1, Homo sapiens, UniProt Q5VWZ2)
# GRM4: Metabotropic glutamate receptor 4 (GRM4, Homo sapiens, UniProt Q14833)
# Lysophospholipase-like protein 1: Lysophospholipase-like protein 1 (Mus musculus, UniProt Q3UFF7)
# GLP1R: Glucagon-like peptide 1 receptor (GLP1R, Homo sapiens, UniProt P43220)
# KCNT1: Potassium channel subfamily T member 1 (KCNT1, Homo sapiens, UniProt Q5JUK3)
# WEE1/CRBN: WEE1/CRBN (Homo sapiens, UniProt P30291+Q96SW2)
# FPR1: fMet-Leu-Phe receptor (FPR1, Homo sapiens, UniProt P21462)
# LDHA: L-lactate dehydrogenase A chain (LDHA, Homo sapiens, UniProt P00338)
SMILES,tested on,assay,test system,setting,how to read,quantity,result
Cc1cccc(C2NC(=O)c3c(Cl)cccc3N2)c1 (racemic),"SWI/SNF-related matrix-associated actin-dependent regulator of chromatin subfamily A member 4 (SMARCA4, Homo sapiens, UniProt P51532)",ITC,,"bromodomain, wild type",,Kd,> 70 µM
Nc1nc(SCc2ccc(Cl)cc2)nn1S(=O)(=O)c1cccc([N+](=O)[O-])c1,LYPLAL1,"enzyme activity, activator, gel-based ABPP, FP-rhodamine",purified protein,,,EC50,0.11 µM
CCCCC(C(=O)Nc1ccc(Br)cc1)n1nc(C)cc(Cc2cccc(OC)c2)c1=O (racemic),"N-formyl peptide receptor 2 (FPR2, Homo sapiens, UniProt P25090)","calcium mobilization, agonist",HL-60 transfected with FPR2,,,EC50,0.1 µM
NCC(c1ccccc1)c1ccc(O)cc1 (stereo not shown),"Trace amine-associated receptor 1 (Rattus norvegicus, UniProt Q923Y9)","cAMP production, agonist",HEK293,,,EC50,0.078 ± 0.009 µM
COc1ccc(NC(=O)CN2CCCN(S(=O)(=O)c3sc(C)nc3C)CC2)c(OC)c1,GRM4,"calcium mobilization, positive allosteric modulator",CHO cells with Gqi5,together with: glutamate EC20,,EC50,> 10 µM
Nc1nc(NCCc2ccc(Cl)cc2)nn1S(=O)(=O)c1cccc([N+](=O)[O-])c1,Lysophospholipase-like protein 1,"enzyme activity, activator, gel-based ABPP, FP-rhodamine",purified protein,,,EC50,6.2 µM
CC(C)(Cn1cc(-c2ccc(S(C)(=O)=O)cc2)nn1)c1c[nH]c2ccccc12,GLP1R,"cAMP accumulation, positive allosteric modulator, HTRF",CHO-K1 expressing GLP1R,"purified compound, together with: GLP-1(9-36) at EC20",,EC50,1.16 ± 0.255 µM
COc1ccc(NC(=O)CN2CCCN(S(=O)(=O)c3ccc(C)c(C)c3)CC2)c(OC)c1,GRM4,"calcium mobilization, positive allosteric modulator",CHO cells with Gqi5,together with: glutamate EC20,,EC50,3.2 ± 0.2 µM
NCC(c1ccc(O)cc1)c1ccc(Oc2ccccc2)cc1 (stereo not shown),"Trace amine-associated receptor 1 (Taar1, Mus musculus, UniProt Q923Y8, T268M/Y287N)","cAMP production, agonist",,double mutant,,EC50,0.138 ± 0.024 µM
COc1cccc2c1ncn2CC1CCN(S(=O)(=O)c2cccc(C(F)(F)F)c2)CC1,KCNT1,"thallium flux, activator",HEK293 expressing KCNT1,,,EC50,1.3 µM
CCC[C@@H]1CC(=O)C2=C(C1)NC(C)=C(C#N)[C@H]2c1cc(Br)c(OCc2cccc(C(=O)NCCOCCOCCOCCN=[N+]=[N-])c2)c(OCC)c1,"Follicle-stimulating hormone receptor (FSHR, Homo sapiens, UniProt P23945)","reporter gene, agonist, CRE-luciferase",CHO expressing human FSHR,,,EC50,0.006 µM
CC(C)(Cn1cc(-c2ccc(CO)cc2)nn1)c1c[nH]c2ccccc12,GLP1R,"cAMP accumulation, positive allosteric modulator, HTRF",CHO-K1 expressing GLP1R,"crude reaction product, together with: GLP-1(9-36) at EC20",,EC50,0.97 µM
CCCn1c(NCc2ccccc2O)nc2ccccc21,"Retinaldehyde dehydrogenase 3 (ALDH1A3, Homo sapiens, UniProt P47895)","enzyme activity, inhibitor, NADH absorbance 340 nm",,"pH 7.5, 25 °C, 200 µM NAD+, together with: 100 µM propionaldehyde",,EC50,0.7 ± 0.045 µM
NCCCCNC(=O)[C@H](Cc1ccc(I)cc1)NC(=O)N1CCc2ccccc2C1,"Melanocortin receptor 5 (Mus musculus, UniProt P41149)","reporter gene, agonist, β-galactosidase reporter",HEK293 stably expressing Melanocortin receptor 5,,,EC50,43 ± 11 µM
Nc1nc(SCc2ccc(Cl)cc2)nn1S(=O)(=O)c1ccoc1,Lysophospholipase-like protein 1,"enzyme activity, activator, gel-based ABPP, FP-rhodamine",purified protein,,,EC50,> 20 µM
Cc1cccc2nc(-c3ccc4c(c3)C(=O)N(C3CCC(=O)NC3=O)C4=O)c(NC(C)(C)CC(C)(C)C)n12 (stereo not shown),WEE1/CRBN,"degrader, HiBiT luciferase",Jurkat (HiBiT-tagged),5 h,,DC50,0.14 ± 0.02 µM
CCCCCCCC(=O)OCC(COP(=O)(O)OC1C(O)C(O)C(OP(=O)(O)O)C(OP(=O)(O)O)C1O)OC(=O)CCCCCCC (stereo not shown),"CNGA3/CNGB3 (Homo sapiens, UniProt Q16281+Q9NQW8)","increase in cGMP K1/2, inside-out patch clamp",,CNGA3/CNGB3 heteromer,,EC50,3.44 µM
COC(=O)[C@@]1(C)C=C(C(=O)Nc2cccc(C(=O)NC34CC(Nc5nccc(-c6cccnc6)n5)(C3)C4)c2)C(=O)CC1,"Mitogen-activated protein kinase 9 (MAPK9, Homo sapiens, UniProt P45984)","enzyme activity, inhibitor",,0.06097 µM,,remaining activity,0.456 fraction of control
Cc1[nH]c2cc(Cl)cc(Cl)c2c1CCn1cc(COCCOCCO)nn1,GLP1R,"cAMP accumulation, positive allosteric modulator, HTRF",CHO-K1 expressing GLP1R,"crude reaction product, together with: GLP-1(9-36) at EC20",,EC50,0.395 µM
COc1ccc(NC(=O)CN2CCCN(S(=O)(=O)Cc3ccccc3)CC2)c(OC)c1,GRM4,"calcium mobilization, positive allosteric modulator",CHO cells with Gqi5,together with: glutamate EC20,,EC50,> 10 µM
C#CCCCN1C(=O)C2(CN2[S+]([O-])C(C)(C)C)c2ccccc21 (stereo not shown),"Myc proto-oncogene protein (MYC, Homo sapiens, UniProt P01106)","protein degradation, degrader, HiBiT",HEK293-LgBiT,24 h,,EC50,> 50 µM
CC(C)(Cn1cc(CN[C@@H]2CCc3ccccc32)nn1)c1c[nH]c2ccccc12,GLP1R,"cAMP accumulation, positive allosteric modulator, HTRF",CHO-K1 expressing GLP1R,"purified compound, together with: GLP-1(9-36) at EC20",,EC50,1.84 ± 0.338 µM
COc1ccc(S(=O)(=O)n2nc(SCc3ccc(Cl)cc3)nc2N)cn1,LYPLAL1,"enzyme activity, activator, gel-based ABPP, FP-rhodamine",purified protein,,,EC50,0.71 µM
Cc1nc(-c2ccc(OCC(C)C)c(C#N)c2)sc1C(=O)N(C)C,"Metabotropic glutamate receptor 2 (Grm2, Rattus norvegicus, UniProt P31421)","thallium flux, positive allosteric modulator",HEK293 GIRK,together with: glutamate EC20,,EC50,0.77 µM
CC(C)(Cn1cc(CCC(=O)Nc2ccccc2)nn1)c1c[nH]c2ccccc12,GLP1R,"cAMP accumulation, positive allosteric modulator, HTRF",CHO-K1 expressing GLP1R,"crude reaction product, together with: GLP-1(9-36) at EC20",,EC50,1.11 µM
NCC(c1ccccc1)c1cccc(Oc2ccccc2)c1 (stereo not shown),"Trace amine-associated receptor 1 (Rattus norvegicus, UniProt Q923Y9, M268T)","cAMP, agonist",,rat receptor mutant,,EC50,0.055 ± 0.02 µM
COc1ccc(C2(CNC(=O)[C@H](Cc3c[nH]c4ccccc34)NC(=O)Nc3ccc([N+](=O)[O-])cc3)CCCCC2)cc1,FPR1,"Ca2+ mobilization, agonist",HL-60 transfected with FPR1,,,EC50,14.8 ± 4.6 µM
NCCCCNC(=O)[C@H](Cc1ccccc1)NC(=O)N1CCc2ccccc2C1,"Melanocortin receptor 4 (Mus musculus, UniProt P56450)","reporter gene, agonist, β-galactosidase reporter",HEK293 stably expressing Melanocortin receptor 4,,,EC50,19 ± 2 µM
COc1ccc(C2=[N+]3C(=Cc4c(C)c(CCC(=O)NCc5cn(CCOc6ccc(C(c7ccc(Cl)cc7)N7CCN(C(=O)OC(C(F)(F)F)C(F)(F)F)CC7)cc6)nn5)c(C)n4[B-]3(F)F)C=C2)cc1 (stereo not shown),"Monoglyceride lipase (MGLL, Homo sapiens, UniProt Q99685)","target engagement, gel-based ABPP",U-87 MG,"1 h, 37 °C",,EC50,~0.01 µM
Cc1ccc2c(c1)ncn2CC1CCN(S(=O)(=O)c2cccc(C(F)(F)F)c2)CC1,KCNT1,"thallium flux, activator",HEK293 expressing KCNT1,,,EC50,2.4 µM
COC(=O)c1ccc(NC(=O)CSc2nc3ccc(OC)cc3[nH]2)cc1,FPR1,"calcium mobilization, agonist",HL-60 transfected with FPR1,,,EC50,1.5 µM
Cc1c(=O)n(C)c(Nc2ccc(I)cc2F)c2c(=O)n(C3CC3)c(=O)n(-c3cccc(NC(=O)CCOCCOCCNC(=O)CCC4=[N+]5C(=Cc6ccc(-c7ccc[nH]7)n6[B-]5(F)F)C=C4)c3)c12,"Dual specificity mitogen-activated protein kinase kinase 1, with BRAF (MAP2K1, Homo sapiens, UniProt Q02750)","binding, NanoBRET",HEK-293T,MEK1-NanoLuc with BRAF,,EC50,0.178 ± 0.033 µM
N#Cc1ccc(-c2c(-c3ccncc3)nnn2CC(=O)Nc2ccc(-c3ccccc3)cn2)cc1,"Protein-serine O-palmitoleoyltransferase porcupine (Mus musculus, UniProt Q9JJJ7)","Wnt signalling reporter, inhibitor",L-Wnt-STF,,,EC50,0.008 µM
O=C(Nc1nccs1)C12CC1/C(=N\O)c1ccccc1O2 (stereo not shown),GRM4,"calcium mobilization, positive allosteric modulator",CHO hmGluR4/Gqi5,together with: glutamate EC20,,EC50,> 5 µM
NS(=O)(=O)c1ccc(Cc2c(-c3ccc(F)c(C#CC4CC4)c3)nn(-c3nc(C(=O)O)cs3)c2CC2CC2)cc1F,LDHA,"thermal stabilisation, CETSA",HEK293,"3.5 min, 71 °C",,EC50,0.04 µM
CC(C)(C)Nc1c(-c2ccc3c(c2)C(=O)N(C2CCC(=O)NC2=O)C3)nc2ccccn12 (stereo not shown),WEE1/CRBN,"degrader, HiBiT luciferase",Jurkat (HiBiT-tagged),5 h,,DC50,> 10 µM
COc1cc([C@@H]2c3cc4c(cc3C=C(C=O)[C@H]2C(=O)OCc2ccc(CBr)cc2)OCO4)cc(OC)c1OC,Leishmania,,mouse splenocytes,,reference: CC50 over amastigote EC50,selectivity index,0.7
Cc1ncsc1-c1ccc([C@H](C)NC(=O)[C@@H]2C[C@@H](O)CN2C(=O)[C@@H](NC(=O)CCCCCCC(=O)N2CCN(C[C@]3(C)CCC(c4ccc(Cl)cc4)=C(CN4CCN(c5ccc(C(=O)NS(=O)(=O)c6ccc(N[C@H](CCN7CCOCC7)CSc7ccccc7)c(S(=O)(=O)C(F)(F)F)c6)cc5)CC4)C3)CC2)C(C)(C)C)cc1,,,"STAM mice NASH-HCC model, liver","day 150, treated days 90-150",,liver fibrosis,decreased
NS(=O)(=O)c1ccc(Cc2c(-c3cccc(-c4ccccc4)c3)nn(-c3nc(C(=O)O)cs3)c2C2CC2)c(F)c1,LDHA,"thermal stabilisation, CETSA",HEK293,"3.5 min, 71 °C",,EC50,1.5 µM
COc1ccccc1-c1cc(C(F)(F)F)nc(S(=O)(=O)CCCC(=O)O)n1,GLP1R,"cAMP accumulation, agonist",HEK293T overexpressing target,no peptide ligand,,EC50,39 ± 8.3 µM
COC(=O)[C@@H]1C(c2nc3cncnc3[nH]2)=Cc2cc3c(cc2[C@H]1c1cc(OC)c(OC)c(OC)c1)OCO3,Leishmania infantum,iRFP fluorescence,"mouse splenocytes infected, amastigote, iRFP, ex vivo splenic explant",48 h,,EC50,43.4 ± 2.1 µM
CCc1ccc(NS(=O)(=O)c2cn(Cc3ccccn3)c3ncccc23)cc1,"Cystic fibrosis transmembrane conductance regulator, W1282X (CFTR, Homo sapiens, UniProt P13569)","iodide influx, co-potentiator, YFP fluorescence",FRT expressing CFTR,together with: ivacaftor,,EC50,0.6 µM
CSc1cc(NC(=O)c2ccccn2)ccc1Cl,"Metabotropic glutamate receptor 1 (GRM1, Homo sapiens, UniProt Q13255)",agonist,,,,EC50,> 30 µM
